# Assay results gathered from unrelated publications.
# Protocols differ between the studies behind these lines. ± marks the error that the study gave.
SMILES,cell line,test,system,setting,scale,quantity,value
CC(=O)OC[C@H]1O[C@@H]([Se]C(=O)c2ccc([N+](=O)[O-])cc2)[C@H](OC(C)=O)[C@@H](OC(C)=O)[C@@H]1OC(C)=O,J774,"cell growth or viability, WST-1",,24 h,,CC50,14.8 µM
CNCCNC(=O)CN1C(=O)Cc2c([nH]c3ccc(Br)cc23)-c2ccc(Cl)cc21,J774,cell growth or viability,,24 h,,CC50,10.3 µM
O=C(CCC(CCC(=O)N[C@@H](Cc1ccc(O)cc1)C(=O)O)(CCC(=O)N[C@@H](Cc1ccc(O)cc1)C(=O)O)NC(=O)CCOCC(COCCC(=O)NC(CCC(=O)N[C@@H](Cc1ccc(O)cc1)C(=O)O)(CCC(=O)N[C@@H](Cc1ccc(O)cc1)C(=O)O)CCC(=O)N[C@@H](Cc1ccc(O)cc1)C(=O)O)(COCCC(=O)NC(CCC(=O)N[C@@H](Cc1ccc(O)cc1)C(=O)O)(CCC(=O)N[C@@H](Cc1ccc(O)cc1)C(=O)O)CCC(=O)N[C@@H](Cc1ccc(O)cc1)C(=O)O)COCCC(=O)NC(CCC(=O)N[C@@H](Cc1ccc(O)cc1)C(=O)O)(CCC(=O)N[C@@H](Cc1ccc(O)cc1)C(=O)O)CCC(=O)N[C@@H](Cc1ccc(O)cc1)C(=O)O)N[C@@H](Cc1ccc(O)cc1)C(=O)O,RD,"cell growth or viability, MTS",,72 h,,CC50,> 30 µM
COc1ccc(-c2oc3ccc(-c4cc(OC)c(OC)c(OC)c4)cc3c2C#CC2(O)CCCCC2)cc1,primary human hepatocytes,,,,,CC50,> 31.6 µM
Cn1cc2c(n1)CN(C(=O)Nc1nc(-c3ccc(F)cc3)ccc1N)C2,human bone marrow erythroid progenitors,,,"10 µM, 14 days",relative to: untreated,colony formation,16%
O=C(CCc1ccc(CNC(C(=O)OC2CCCC2)C2CCCCC2)cn1)NO (stereo not shown),human CD14+ monocytes,,human whole blood,"10 µM, 1 or 6 h",,intracellular level,not detected
CC/C(=C(\c1ccc(O)cc1)c1ccc(OCCN(C)CCOCCOCCOCCN(C)CCOc2ccc(/C(=C(/CC)c3ccccc3)c3ccc(O)cc3)cc2)cc1)c1ccccc1,U2OS transfected with ERα,,,"10 µM, cytotoxicity",,cell density,51%
CCCCn1cc(C(=O)O)c(=O)c2cc(F)c(Nc3cccc(OC)c3)c([N+](=O)[O-])c21,PC-3,"cell growth or viability, SRB",,,,IC50,303 µM
C[C@H](NP(=O)(O)OC[C@H]1O[C@@](C#N)(c2ccc3c(N)ncnn23)[C@H](O)[C@@H]1O)C(=O)O,primary human hepatocytes,"Seahorse OCR, item: spare respiratory capacity",,3 days,,CC50,> 100 µM
CC/C(=C(\c1ccc(O)cc1)c1ccc(OCCN(C)CCOCCOCCOCCOCCOCCN(C)CCOc2ccc(/C(=C(/CC)c3ccccc3)c3ccc(O)cc3)cc2)cc1)c1ccccc1,U2OS transfected with ERα,,,"10 µM, cytotoxicity",,cell density,15%
O=c1c(Br)c2oc3c(CN(Cc4ccccn4)Cc4cnccn4)c(O)ccc3nc-2c2ccccc12,RAW 246.7,colocalisation with ER-Tracker,,,,Pearson's coefficient,0.575
CC(=O)O[C@@H]1[C@@H](OC(C)=O)[C@H](Sc2sc(C(=O)c3ccc(Br)cc3)c(N)c2-c2nc3ccccc3s2)OC[C@H]1OC(C)=O,"Huh7.5, uninfected",,,72 h,,non-toxic concentration,100 µg/mL
Cc1ccc(N2Cc3cc(NC(=O)N4CCN(c5cccc(C(F)(F)F)c5)CC4)ccc3C2=O)cc1,primary mouse macrophages,,,concentration not given,,cytotoxicity,not toxic
CC(=O)OC[C@H]1O[C@@H]([Se][C@@H]2O[C@H](COC(C)=O)[C@@H](OC(C)=O)[C@H](OC(C)=O)[C@H]2OC(C)=O)[C@H](OC(C)=O)[C@@H](OC(C)=O)[C@@H]1OC(C)=O,J774,"cell growth or viability, WST-1",,24 h,,CC50,10.8 µM
COc1cc(-c2ccc3oc(-c4ccsc4)c(C#CC4(O)CCCCC4)c3c2)cc(OC)c1OC,primary human hepatocytes,,,,,CC50,> 100 µM
[99Tc+].[C-]#[N+]CC(C)(C)OC.[C-]#[N+]CC(C)(C)OC.[C-]#[N+]CC(C)(C)OC.[C-]#[N+]CC(C)(C)OC.[C-]#[N+]CC(C)(C)OC.[C-]#[N+]CC(C)(C)OC,human sandwich-cultured hepatocytes,,,,relative to: total efflux,canalicular efflux fraction,28.3%
CCCCCCCCCCCCCCCC(=O)NCCCC[C@H](NC(=O)[C@H](CCCNC(=N)N)NC(=O)[C@H](CCCCNC(=O)CCCCCCCCCCCCCCC)NC(C)=O)C(=O)O,SK-OV-3,cell proliferation,,"100 µM, 24 h, 37 °C, serum-containing medium",,inhibition,1%
CCc1c(CC2CCCCC2)nc(SCC(=O)c2ccccc2)[nH]c1=O,human PBMC,cell growth or viability,,,,CC50,> 200 µM
CCCCn1cc(C(=O)O)c(=O)c2cc(F)c(Nc3cc(OC)c(OC)c(OC)c3)c([N+](=O)[O-])c21,PC-3,"cell growth, sulforhodamine B",,72 h,,IC50,24.3 ± 2.59 µg/mL
COCCn1cc2c(n1)CN(C(=O)Nc1nc(-c3ccc(F)cc3F)ccc1N)C2,human bone marrow erythroid progenitors,,,"10 µM, 14 days",relative to: untreated,colony formation,40%
CC/C(=C(\c1ccc(O)cc1)c1ccc(OCCN(C)CCOCCOCCOCCOCCOCCOCCOCCOCCOCCN(C)CCOc2ccc(/C(=C(/CC)c3ccccc3)c3ccc(O)cc3)cc2)cc1)c1ccccc1,U2OS transfected with ERα,,,"10 µM, cytotoxicity",,cell density,9%
O=C(NCCN1CCCC1)c1ccc2cc(C(=O)c3cc(O)c(O)c(O)c3)oc2c1,HEK293T,CellTiter-Glo,,"concentration not given, 24 and 72 h",,cytotoxicity,not toxic
N#Cc1cc(C(=O)OCC[18F])c(C(F)(F)F)nc1N1CCN(C(=O)Cc2ccccc2)CC1,bEnd.3 monolayer transwell,,,concentration not given,,permeability,19.6%
CC(C)C[C@H](NC(=O)[C@H](CC(N)=O)NC(=O)[C@H](Cc1ccc(O)cc1)NC(=O)CN(C)C(=O)CCCCC(=O)O)C(=O)N[C@@H](Cc1ccc(O)cc1)C(=O)N[C@@H](CCCNC(=N)N)C(=O)N[C@H](C(=O)N[C@@H](CCCNC(=N)N)C(=O)N[C@@H](CO)C(N)=O)C(C)C,choroidal endothelial cells,MTT,,"100 µM, 48 h",,decrease in cell growth,~40%
CC(C)CCC[C@@H](C)[C@H]1CCC([C@@H]2CC[C@H]3C[C@H](O)CC[C@]3(C)[C@H]2O)[C@]1(C)CC(=O)O (stereo partly shown),HEK293T,CellTiter-Blue,,concentration not given,,viability,> 100%
CC1=C(/C=C/C(=O)N2CCN(C(N)=O)CC2)C(C)(C)CCC1,T-REx-293 expressing human T17M opsin,cytotoxicity,,2 days,,toxic concentration,≥ 80 µM
CC(=O)N[C@H](C(=O)N[C@H](C(=O)N[C@@H](CCCNC(=N)N)C(=O)N1Cc2ccccc2C[C@H]1C(=O)N[C@@H](Cc1ccccc1)C(N)=O)C1CCCCC1)C(C)C,human PBMC,"Bio-Plex multiplex, item: FGF",,"250 µg/mL, 24 h",,cytokine level,< 4.5 pg/mL
O=[N+]([O-])c1c(Br)c(Cl)c2cccnc2c1O,HEK293T,"cell viability, CCK-8",,48 h,,IC50,~52.7 µg/mL
COc1ccc(NC(=O)N/N=C2\CC3(CCN(C)CC3)Oc3ccccc32)cc1,PC-3,"cell growth, MTT",,48 h,,IC50,3.3 ± 0.13 µM
CC/C(=C(\c1ccc(O)cc1)c1ccc(OCCN(C)CCOCCOCCN(C)CCOc2ccc(/C(=C(/CC)c3ccccc3)c3ccc(O)cc3)cc2)cc1)c1ccccc1,U2OS transfected with ERα,,,"10 µM, cytotoxicity",,cell density,80%
O=Cc1c(O)ccc2ccccc12,HUVEC,item: CYP1B1,,"75 µM, 24 h",relative to: DMSO,log2 fold change,4.21
COc1ccc2c(c1)c1c(C)c3cnccc3c(C)c1n2CCCN1CCN(C)CC1,SH-SY5Y,cell growth,,,,IC50,1.8 ± 0.6 µM
CC(=O)N[C@@H]1[C@@H](OC(C)=O)[C@H](OC(C)=O)[C@@H](COC(C)=O)O[C@H]1[Se]Cc1ccc([N+](=O)[O-])cc1,J774,"cell growth or viability, WST-1",,24 h,,CC50,8.6 µM
COc1ccc(C(=O)Nc2cccc(S(N)(=O)=O)c2)cc1OC,HEK293T,"cell viability, MTT",,"100 µM, 24 to 48 h",,cytotoxicity,27 ± 0.2%
CC(=O)OC[C@H]1O[C@@H]([Se]C(C)=O)[C@H](OC(C)=O)[C@@H](OC(C)=O)[C@@H]1OC(C)=O,J774,"cell growth or viability, WST-1",,24 h,,CC50,22.8 µM
C[C@H](CCC=O)[C@@H]1CC[C@]2(C)C3=C(CC[C@@]12C)[C@@]1(C)CC[C@H](O)C(C)(C)[C@@H]1CC3,COS-7,"cell growth or viability, SRB",,50 µM,,inhibition,22%
O=C(Cc1ccc(OCc2ccccc2)cc1)NC1(C(=O)O)CCN(C(=O)c2ccc(-c3cccc(Cl)c3)cc2)CC1,LX-2,cytotoxicity,,3 days,,IC50,> 100 µM

# Excerpt of the above:
SMILES,cell line,test,system,setting,scale,quantity,value
CC(=O)O[C@@H]1[C@@H](OC(C)=O)[C@H](Sc2sc(C(=O)c3ccc(Br)cc3)c(N)c2-c2nc3ccccc3s2)OC[C@H]1OC(C)=O,"Huh7.5, uninfected",,,72 h,,non-toxic concentration,100 µg/mL
O=C(NCCN1CCCC1)c1ccc2cc(C(=O)c3cc(O)c(O)c(O)c3)oc2c1,HEK293T,CellTiter-Glo,,"concentration not given, 24 and 72 h",,cytotoxicity,not toxic
N#Cc1cc(C(=O)OCC[18F])c(C(F)(F)F)nc1N1CCN(C(=O)Cc2ccccc2)CC1,bEnd.3 monolayer transwell,,,concentration not given,,permeability,19.6%
CNCCNC(=O)CN1C(=O)Cc2c([nH]c3ccc(Br)cc23)-c2ccc(Cl)cc21,J774,cell growth or viability,,24 h,,CC50,10.3 µM
